# Experimental data collected from several papers.
# Each numbered part is a random draw from the data of one study; scales do not carry over between parts. Positions count from the first letter of the parent shown.

# Set 1
# Target: CCNE2, cyclin fold, Cln2 fusion (human)
# Method: yeast growth competition, sequencing
# Medium: yeast
# Notes: strong parent motif
# Reference: not given
# Reading: higher = stronger binding
# Starting sequence: E2F2 docking peptide (human); LPAKRKLDLEGIG
Variant,normalised enrichment score
LPAKKKLDLEGIG [R5K],0.0617
LPAKRKLDFEGIG [L9F],5.17
LPAKRALDLEGIG [K6A],0.849
LPAKRKLDLAGIG [E10A],0.492
LPAKRKLALEGIG [D8A],0.552
LPAKRKLDLEGAG [I12A],0.857
LPAKAKLDLEGIG [R5A],1.08
LPAKRKLDLEAIG [G11A],0.772

# Set 2
# Target: ABI1, truncated, D143A, DHFR fusion (Arabidopsis thaliana, UniProt P49597)
# Method: DHFR PCA, dose-response
# Medium: yeast
# Notes: Hill fit, not affinity, not high confidence
# With: (+)-ABA, dose series
# Reading: lower = more sensitive
# Starting sequence: PYL1, truncated, DHFR fusion (Arabidopsis thaliana, UniProt Q8VZS8); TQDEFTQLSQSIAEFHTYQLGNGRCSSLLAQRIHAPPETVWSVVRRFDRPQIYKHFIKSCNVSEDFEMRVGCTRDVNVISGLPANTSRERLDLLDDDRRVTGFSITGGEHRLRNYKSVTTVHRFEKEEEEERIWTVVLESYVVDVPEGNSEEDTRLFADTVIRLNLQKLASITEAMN
Variant,ABA EC50
T135F,16.1 µM
L112R,15.7 µM
H16T,739 µM
V137W,251 µM
S140A,855 µM
F157S,1090 µM
Y141H,88.1 µM
D92P,4.44 µM
V143D,15.8 µM
S87D,1100 µM
R98W,60.3 µM
V143N,14.1 µM
T154D,0.14 µM
N149W,2.1 µM
L112E,125 µM
Y141D,1.38 µM

# Set 3
# Target: RNA binding protein fox-1 homolog 2, RRM domain, GST-SBP tag (RBFOX2, Homo sapiens, UniProt O43251-10, residues 100-194)
# Method: RNA Bind-n-Seq
# Molecule type: RNA
# Medium: in vitro
# Tested at: 365 nM
# Notes: natural RNA segment, single round, ends assumed
# Reference: no-protein control
# Reading: higher = stronger binding
# Constant ends, left off below: GGGAGUUCUACAGUCCGACGAUC … UGGAAUUCUCGGGUGCCAA
# Target sequence (chain): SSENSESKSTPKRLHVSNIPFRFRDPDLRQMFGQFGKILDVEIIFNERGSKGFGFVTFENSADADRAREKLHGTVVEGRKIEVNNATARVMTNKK
Oligonucleotide,RBNS enrichment (R)
ACUGAUCUUUGAUCCUCCUGUGAAGAUGGACUUGCCUGGCCUUAGUCAUGUGGAAAUGGUGUACCCGGCUGAGAUUUUUACAGCAAUAAAGGGGACUCUCACUAGGCUAG,0.357
AUAAGUUUUAGACAUACAAGUGUCUAUCUCAAAGCAGAAGCAGAGAAAACAGAAAGAAGCUACAACAUGGCUCUAGUGUUGCAAUGUUUUCUAUAAGCACACUGACCUUA,0.339
GCUUUCUUUUAUGGUAGACCUGUUAAUGGGGAAAAAAUACAUCAAAUCAAAUAGAAUCUUAUAUCUGUAUGUUAAAAUAGAGCACUUACCUGAAGUCAGUGGCCUGGAUC,0.489
CCAAAGUAGACUCCUUCGAACGUAUUUAAUUUGGCCUUUUCAGCUUUCUUCUUGCCCAGCUCUGUCGAAUUCAUGGGUGUGUGUGCACAUGUUGGUUUCACUCACCCAGA,3.08
CUGGAACUGGAGAAGAGGAGGCCCCGCCCCACCGCUCCGGGAGCUGCUCAUCAGCCGCAACUUCCUGCCGACCCUGAUGCGGGUGGGCCGAGCAGUGUGGACAUCAGCCA,0.22
UCCAGAGCUGAGCCUGACGUCUGCUCUGAAGAAUGCUUAGAAGGUUCCCAGACACCAGAGCCAGAUGUCCCCCACCACCGGUCAGGACCUCCUUGAGGUGCACAAGCACG,1.57
AACCUGUAGUGAAGUAGACUUGGCCGUCCCUGGACAGUGAGGUCAGAUGUGAAUACAUAUUGUAAGAGCACGUUGAAUAGUGUGCAUUACUGUGGGGAAACACCGAAACU,0.256
AAUGUUUUUGAUUUAUUUGUGUCUUAUAGCUCUAGCUGCUAAUAAAGAUCCCAUGUCCUGCUUUCUCAGUGUUGGUCAAAUGAGUGAAUUUGGAUUUUAGUGGACAAUAG,0.342
ACGGACUUGUUAACCUAACCUAAUUAUGCUCAGUGGACUUCUAUAGAUGGUUUUGAAAAAUGAACUGAGCUGCCUUCCCCCGUCGCAUAACCAGUUCCAUCAUCCUGGUG,0.585
CCCCAUCUCUACCAACAAAGUGUAUUCUUCAUAGAUAUUAGAUAAAUCUUCCAGGCUUCAUCAUCAAGAGGGGAAGGGACCUUAAUUCUAGGGUCUCCCCUUUACCCUCU,0.905
CCAGCUCCUCAGGUUUAACCUCUAAGUUGUGGAUGGAGACUAUUUAAAGUACACAUGAUGUAUUCAGUGCUGCAAGAGUGUUUGAAAUGAGCACACUGCCUCAUUUUCCU,0.467
UUCUAUGGGGUAGCUAAGUUUGGGAAGCCUAUGAACUGUGGGUCCUGCCAAGGUUCUCAAAGCACUUAUCCUCAGGAUAGGGAAAUAGCAGGGACGCCUUGUCCCCAAGA,0.403

# Set 4
# Target: UBE2S UBC core domain (UniProt Q16763)
# Method: yeast two-hybrid
# Medium: yeast
# Notes: mostly zero background
# Reference: not given
# Reading: higher = stronger interaction
# B1: RNF43 RING domain (UniProt Q68DV7); chain SGSSCSSAPVCAICLEEFSEGQELRVISCLHEFHRNCVDPWLHQHRTCPLCMFNITEGDSFS
# B2: RNF112 RING domain (UniProt Q9ULX5); chain QPMAPRELPTCSICLERLRDPISLDCGHDFCIRCFSTHRLPGCEPPCCPECRKICKQKRGLR
# B3: PHF7 RING domain (UniProt Q9BWX1); chain IQHGHVGEESCILCCEDLSQQSVENIQSPCCSQAIYHRKCIQKYAHTSAKHFFKCPQCNNRKEFPQEML
# B4: ANKIB1 RING domain (UniProt Q9P2G1); chain LSPGDLDTSLCDICMCSISVFEDPVDMPCGHDFCRGCWESFLNLKIQEGEAHNIFCPAYDCFQLVPVDIIE
# B5: RNF175 RING domain (UniProt Q8N4F7); chain LPTRSLSDNICAVCGQKIIVELDEEGLIENTYQLSCNHVFHEFCIRGWCIVGKKQTCPYCKEKVDLKRMIS
# B6: UBE4A RING domain (UniProt Q14139); chain LQQQEEETYADACDEFLDPIMSTLMCDPVVLPSSRVTVDRSTIARHLLSDQTDPFNRSPLTMDQIRPNTELKEKIQRWLAERKQQKEQLE
# B7: TRIM15 RING domain (UniProt Q9C019); chain SLKVVHELPACTLCAGPLEDAVTIPCGHTFCRLCLPALSQMGAQSSGKILLCPLCQEEEQAETPMA
# B8: TRIM52 RING domain (UniProt Q96A61); chain PMQTLQEEAVCAICLDYFKDPVSISCGHNFCRGCVTQLWSKEDEEDQNEEEDEWEEEEDEEAV
# B9: TRIM38 RING domain (UniProt O00635); chain STKKMMEEATCSICLSLMTNPVSINCGHSYCHLCITDFFKNPSQKQLRQETFCCPQCRAPFHMDSLRP
# B10: TRIM3 RING domain (UniProt O75382); chain VQPMDKQFLVCSICLDRYQCPKVLPCLHTFCERCLQNYIPAQSLTLSCPVCRQTSILPEQGV
# B11: RNF32 RING domain (UniProt Q9H0A6); chain SLLQGDSVQPCPICKEEFELRPQVLLSCSHVFHKACLQAFEKFTNKKTCPLCRKNQYQTRVIH
# B12: RNF5 RING domain (UniProt Q99942); chain ERGGAGATFECNICLETAREAVVSVCGHLYCWPCLHQWLETRPERQECPVCKAGISREKVVP
# B13: MSL2 RING domain (UniProt Q9HCI7); chain LLPYFRQSLSCCVCGHLLQDPIAPTNSTCQHYVCKTCKGKKMMMKPSCSWCKDYEQFEENKQ
# Residues (chain): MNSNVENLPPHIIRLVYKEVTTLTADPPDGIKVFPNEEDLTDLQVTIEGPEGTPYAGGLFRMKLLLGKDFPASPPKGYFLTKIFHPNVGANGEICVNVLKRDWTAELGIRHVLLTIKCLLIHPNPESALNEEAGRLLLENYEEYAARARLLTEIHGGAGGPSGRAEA
Molecule,lacZ reporter activity
B1 (RNF43 RING domain),0
B2 (RNF112 RING domain),0
B3 (PHF7 RING domain),0
B4 (ANKIB1 RING domain),0
B5 (RNF175 RING domain),0
B6 (UBE4A RING domain),0
B7 (TRIM15 RING domain),0
B8 (TRIM52 RING domain),0
QLQDEEDDSLCRICMDAVIDCVLLECGHMVTCTKCGKRMSECPICRQYVVRAVHVF (RNF34 RING domain (UniProt Q969K3)),0
B9 (TRIM38 RING domain),0
B10 (TRIM3 RING domain),0
B11 (RNF32 RING domain),0
B12 (RNF5 RING domain),0
MANWVFCNRCFQPPHRTSCFSLTNCGHVYCDACLGKGKKNECLICKAPCRTVLLSK (RNF212 RING domain (UniProt Q495C1)),0
B13 (MSL2 RING domain),0
